Published values gathered from unrelated publications.
Compare with care: the assays were run in different laboratories. “And” joins repeats or separate records; there may be more than shown. ± marks the error that the study gave.

CCOc1cncc(-c2ccc(NC(=O)C3(c4ccnc(NS(=O)(=O)C5CC5)n4)CCOCC3)nc2)n1  IC50 (colon cancer; cell viability, CellTiter-Glo; DMSO 0.1%; 72 h, line code 269): 0.111 µM
CCCC(=O)[O][Pt]([Cl])([Cl])[O]C(=O)CCC.N.N  IC50 (A549/DDP cisplatin-resistant; MTT; 48 h, together with: survivin siRNA 10 nM transfected 24 h before): 13.5 ± 4.03 µM
CN1CC[C@@H](COc2cnc(C#N)cc2-c2ccn3nc(NC(=O)C4CC4)cc3c2)C1  IC50 (human T cells; T cell activation, measured: IL-2; together with: anti-CD3/anti-CD28): ~6.6 µM
CCCCCCCCCC(=O)Oc1c(C)c(OC)c2c(/C=C/c3ccccc3)c(CCCCCCCC)c(=O)oc2c1C  IC50 (FaDu; cell growth or viability, SRB; 72 h): > 50 µM
CC1(C)CC(=O)C2=C(C1)Oc1ccc3ccccc3c1C2c1c[nH]c2ccccc12 (centres unmarked)  IC50 (3T3-L1; cell growth or viability, MTT; 72 h): > 100 µg/mL
CC(CCC(=O)[O][Pt]([NH2])([NH2])([OH])([Cl])[Cl])C1CCC2C3CCC4CC(O)CCC4(C)C3CCC12C (centres unmarked)  IC50 (RWPE-1 normal prostate; cell viability, MTT; 72 h): 10.1 ± 0.5 µM
CNS(=O)(=O)Nc1nccc(Cc2c(C)c3ccc(Oc4ncccc4F)cc3oc2=O)c1F  IC50 (DBTRG-05MG; cell viability; 7 days): 0.0046 µM
C=CC(=O)N1CCCC(n2c(=O)c3ncccc3n(Cc3ccc(Oc4ccccc4)cc3)c2=O)C1 (centres unmarked)  IC50 (MEC1; cell growth or viability, MTT; 72 h): 8 µM
Cn1ncc(-c2ccc3c(=O)[nH]nc(CN)c3c2)c1-c1c(F)c(Cl)cc(OC2CC2)c1C#N  IC50 (KYSE-70; cell viability, inhibitor, CellTiter-Glo; 120 h, baseline-subtracted): 2.12 µM
O=C(NCCOCCOCCNC(=O)c1cc2ccccc2c2ccccc12)c1cc(C(=O)N2CCNCCNCCNCC2)c(O)c(C(=O)N2CCNCCNCCNCC2)c1  IC50 (PK-59; cell growth or viability, MTT; 24 h): > 1000 µM
O=C(O)CCc1ccc2c(c1)c(CCc1ccccc1)cn2-c1ccc(Oc2ccccc2)cc1  IC50 (BV-2; PGE2 release, inhibitor; LPS-stimulated): 0.04 µM
COc1cc(-c2cn(C)c(=O)c3cnccc23)cc(OC)c1Cn1ccnc1  IC50 (Kasumi 1; cell growth or viability, ATP luminescence): 2.9 µM
CC(C)OC(=O)[C@H](CO)NCc1cc(Cl)c(OCc2cccc(-c3ccccc3)c2Br)cc1OCc1cccnc1  IC50 (HK-2; cell growth or viability, MTT): > 10 µM
CCCCCCCCCCCCCCCCOP(=O)([O-])OCC[N+](C)(C)C  translation activity (Trypanosoma cruzi; reporter mRNA translation, inhibitor, measured: Renilla luciferase mRNA; cell-free extract; concentration not given; baseline: positive over negative control): 152% and 103%
CC(C)c1ccc(N(C)c2ccc3c(c2)OCC[C@H]3CNc2cnccc2C(=O)O)cc1  IC50 (SNUC2A; cell viability, CellTiter-Glo; large intestine; 7 days): 0.0525 µM
Br.CCCCCCCCCn1c2c(c(=N)c3c1CCC3)CCCC2  translation activity (Trypanosoma cruzi; reporter mRNA translation, inhibitor, measured: capped polyadenylated Renilla luciferase mRNA; cell-free extract; concentration not given; baseline: positive over negative control): 36.5% and 34.1% and 30.7% and 28.8%
CC(C)=CC1OC(C)(C)C2C=C3C(=O)C(Cl)=CC(O)C3C3C(O)C4OC4C(=O)C132 (centres unmarked)  IC50 (JeKo-1; cell growth or viability, MTS): 0.75 µM

A few entries again:
CC(CCC(=O)[O][Pt]([NH2])([NH2])([OH])([Cl])[Cl])C1CCC2C3CCC4CC(O)CCC4(C)C3CCC12C (centres unmarked)  IC50 (RWPE-1 normal prostate; cell viability, MTT; 72 h): 10.1 ± 0.5 µM
CCCC(=O)[O][Pt]([Cl])([Cl])[O]C(=O)CCC.N.N  IC50 (A549/DDP cisplatin-resistant; MTT; 48 h, together with: survivin siRNA 10 nM transfected 24 h before): 13.5 ± 4.03 µM
